Results collected from several papers.
Each numbered part is a random draw from the data of one study; scales do not carry over between parts. “And” joins repeats or separate records; there may be more than shown.

Series 1
Target: Histone acetyltransferase KAT6A, both winged helices, GST fusion (KAT6A, Homo sapiens, UniProt Q92794, residues 1-181)
Technique: protein binding microarray
Molecule type: double-stranded DNA, one strand shown
Sample: in vitro
Tested at: not given
Setting: 8-mer, flanks averaged, mean of 2 arrays, mostly near background
Reference: not given
Direction: higher = stronger binding
Residues (chain): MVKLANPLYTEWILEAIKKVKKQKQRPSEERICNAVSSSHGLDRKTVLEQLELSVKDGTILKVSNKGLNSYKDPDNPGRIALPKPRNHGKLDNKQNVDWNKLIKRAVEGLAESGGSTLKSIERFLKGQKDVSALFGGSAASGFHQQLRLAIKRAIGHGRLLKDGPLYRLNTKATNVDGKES
The E-score of `ATATGTTA` is reported as -0.16.
For `CTTCGCCC`, the E-score was 0.0419.
For `AGACGGGG`, the E-score was 0.149.
`ACGCGAAA` gave an E-score of 0.155.
`AACGTACC` has an E-score of -0.0614.
With `AAACTGAA` the E-score was -0.0581.
`CAGCGTTA` gave an E-score of 0.0697.
`ACAAAACA` has an E-score of -0.193.
The E-score of `ATGTGTCA` is reported as -0.0941.

Series 2
Target: Sal-like protein 4, full length isoform A (SALL4, Homo sapiens, UniProt Q9UJQ4, residues 1-1053)
Sequence of UniProt Q9UJQ4 (whole entry, looked up): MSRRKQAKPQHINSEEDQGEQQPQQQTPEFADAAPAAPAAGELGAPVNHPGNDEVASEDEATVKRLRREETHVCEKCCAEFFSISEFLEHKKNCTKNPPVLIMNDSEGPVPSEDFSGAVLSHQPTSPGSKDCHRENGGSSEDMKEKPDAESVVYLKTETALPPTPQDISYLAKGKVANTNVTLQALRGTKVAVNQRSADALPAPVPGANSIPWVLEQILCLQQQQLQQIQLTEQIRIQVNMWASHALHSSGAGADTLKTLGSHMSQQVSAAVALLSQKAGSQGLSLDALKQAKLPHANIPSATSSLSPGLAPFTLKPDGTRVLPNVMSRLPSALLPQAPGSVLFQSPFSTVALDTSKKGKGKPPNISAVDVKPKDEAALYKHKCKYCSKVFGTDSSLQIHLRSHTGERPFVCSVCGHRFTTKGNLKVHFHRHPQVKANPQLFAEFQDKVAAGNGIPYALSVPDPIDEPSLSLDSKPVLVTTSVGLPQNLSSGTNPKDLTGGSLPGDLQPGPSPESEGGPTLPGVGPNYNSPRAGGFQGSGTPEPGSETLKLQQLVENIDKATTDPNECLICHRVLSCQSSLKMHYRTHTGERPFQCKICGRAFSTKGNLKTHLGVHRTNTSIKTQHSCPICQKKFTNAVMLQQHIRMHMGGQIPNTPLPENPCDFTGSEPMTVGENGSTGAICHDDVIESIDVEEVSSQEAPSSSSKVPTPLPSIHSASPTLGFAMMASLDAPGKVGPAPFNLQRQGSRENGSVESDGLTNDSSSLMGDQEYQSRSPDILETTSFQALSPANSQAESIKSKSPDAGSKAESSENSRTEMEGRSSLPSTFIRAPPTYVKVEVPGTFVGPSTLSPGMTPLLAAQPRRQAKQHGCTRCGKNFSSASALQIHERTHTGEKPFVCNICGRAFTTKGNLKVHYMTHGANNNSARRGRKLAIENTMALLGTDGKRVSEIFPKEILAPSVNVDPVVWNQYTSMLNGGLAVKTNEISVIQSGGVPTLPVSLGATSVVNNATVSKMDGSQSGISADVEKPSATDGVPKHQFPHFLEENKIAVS
Technique: universal PBM
Molecule type: double-stranded DNA, one strand shown
Sample: in vitro
Tested at: 600 nM
Setting: 8-mer, flanks averaged, mean of replicates
Direction: higher = stronger binding
With `GCTGCAAC` the E-score was -0.0595.
`AAGCCTAT` gave an E-score of 0.0975.
`ACGATTTC` has an E-score of 0.202.
`ACCCGCTA` gave an E-score of -0.137.
`ACAATTTC` has an E-score of 0.254.
`TCACTAGA` gave an E-score of 0.182.

Series 3
Target: RNA binding protein fox-1 homolog 2, RRM domain, GST-SBP tag (RBFOX2, Homo sapiens, UniProt O43251-10, residues 100-194)
Technique: RNA Bind-n-Seq
Molecule type: RNA
Sample: in vitro
Tested at: 365 nM
Setting: natural RNA segment, single round, ends assumed
Reference: no-protein control
Direction: higher = stronger binding
Construct (chain): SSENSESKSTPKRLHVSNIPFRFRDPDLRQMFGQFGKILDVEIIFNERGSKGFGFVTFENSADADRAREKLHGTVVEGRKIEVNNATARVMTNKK
For `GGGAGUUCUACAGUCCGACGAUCUGGCUUGAAUUAGACCACAAAGCUGGCUGUAUAUGGGAGAGUCCUUUGUUGCUUCCUUCCCUGGAGAGCAACACUACCUCCUGGGCUUUACCAAGCACCACCCUAACCUCUGGAAUUCUCGGGUGCCAA`, “RBNS enrichment (R)” read 0.215.
`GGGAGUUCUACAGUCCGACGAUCCAGGUCUUCCAUCUCCAAGAGGCCACUCUGUCCGGCCAGUGUCUGUUCAGGCCCACUGAAGAAGUGUGCAGAAGUCUUGGAAGUCUGUCCCCGCCCUGAAGAGCUUCAGAUGGAAUUCUCGGGUGCCAA`: “RBNS enrichment (R)” 0.334.
Under “RBNS enrichment (R)”, `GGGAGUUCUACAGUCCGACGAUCGACUGAUUUUUGAAGUAUACCACAGACAAAAAGUUGUUACUAUGGUAAACUAAGCUAGUUUAACACUUGAGCAAAUGCUUAAGAAGGAAUUAAAAAAAAAAAGCUUUGCCUGGAAUUCUCGGGUGCCAA` is recorded as 0.707.
`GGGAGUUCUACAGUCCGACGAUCCAAGAGGGAGAGAGGCUUCAGAACCAGUCCUCCUUUCAUUUCAAAACCCCAGCGGGCCCUCUGGAGUCCGCCCUGCCCCUCCCCCGGCCCCCCAUCCCUCACUUCUGGGCUGGAAUUCUCGGGUGCCAA`: “RBNS enrichment (R)” 0.405.
For `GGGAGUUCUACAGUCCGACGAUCCAGCAAUUGAAAUUUAUGUGAAUUAUUUUGAUUGUAGAAGCACUAUAAUAUGUGCUGAAACUAAAUUUCUUUAAUAUUUUCUAUUCCUGUCAGCACCUUUUCUAGCAGCUUGGAAUUCUCGGGUGCCAA`, “RBNS enrichment (R)” read 1.13.
For `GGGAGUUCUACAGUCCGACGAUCAAACCCUUACAGUGAAGAUGUUUACUCAUUGCCCCCACCUCUGGUCCACACUAGAAAGAAGCUCGCCCCACCUCCACCUGUGAGAUCCGUGAAUUCUCGGAAUGGCAGGGUGGAAUUCUCGGGUGCCAA`, “RBNS enrichment (R)” read 0.229.
Under “RBNS enrichment (R)”, `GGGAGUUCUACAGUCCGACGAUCAACUUUGCAACUUCCGUAAUUAGGAACCUGUUUCUUACAGCUUUUCUAUGCUAAACUUUGUUCUGUUCAGUUCUAGAGUGUAUACAGAACGAAUUGAUGUGUAACUGUAUUGGAAUUCUCGGGUGCCAA` is recorded as 0.4.
`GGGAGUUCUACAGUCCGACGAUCGGUGUCACAGUGUUUGGUUCUUUUGUUUUGUUUUUUAACACUUGUCUCCCCUCAUACACAAAAGUACAAUAUGAAGCCUUCAUUUAAUCUCUGCAGUUCAUCUCAUUUCAUGGAAUUCUCGGGUGCCAA` — result for “RBNS enrichment (R)”: 0.713.
Under “RBNS enrichment (R)”, `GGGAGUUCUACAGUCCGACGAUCGCAAGCCUAGUUGUGCUUUUUGUUGUCUGUUCCCCGUGCCCCCUCCUGUGUCUCACUCUGUCUUCUUGUCACUUGAUGUGCAUUUGCUGUUGUUCUUUCGUUUCUGUCUAUGGAAUUCUCGGGUGCCAA` is recorded as 1.23.

Other studies, line by line
The fold induction of `PhoQ, residues 284 288 289 292 302 303 WVSSAF` is reported as 5.96 and 14.6 (PhoP, residues 12 14 15 18 19 LWHSL (Escherichia coli, UniProt P23836); Sort-seq, item: YFP reporter; E. coli; PhoQ-PhoP variant library, with: 10 µM Mg2+; reference: high Mg2+ state, higher = stronger signaling).

For quick reference, copied from above (series 3):
Under “RBNS enrichment (R)”, `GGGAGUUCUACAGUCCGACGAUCGACUGAUUUUUGAAGUAUACCACAGACAAAAAGUUGUUACUAUGGUAAACUAAGCUAGUUUAACACUUGAGCAAAUGCUUAAGAAGGAAUUAAAAAAAAAAAGCUUUGCCUGGAAUUCUCGGGUGCCAA` is recorded as 0.707.
`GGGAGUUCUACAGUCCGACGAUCCAAGAGGGAGAGAGGCUUCAGAACCAGUCCUCCUUUCAUUUCAAAACCCCAGCGGGCCCUCUGGAGUCCGCCCUGCCCCUCCCCCGGCCCCCCAUCCCUCACUUCUGGGCUGGAAUUCUCGGGUGCCAA`: “RBNS enrichment (R)” 0.405.
